Published values gathered from unrelated publications.
Lines come from different studies, so protocols differ. ± gives the spread as reported.
Cell line: Caco-2

SMILES	assay	setting	IC50
O=C(O)CNc1nc(NCC(=O)O)nc(NNC(=O)c2ccc(Nc3nc(Nc4ccc(C(=O)NNc5nc(NCC(=O)O)nc(NCC(=O)O)n5)cc4)nc(Nc4ccc(C(=O)NNc5nc(NCC(=O)O)nc(NCC(=O)O)n5)cc4)n3)cc2)n1	cell growth or viability, MTT	72 h	0.0033 µM
NC1=N[N+](=Cc2c3ccccc3cc3ccccc23)[Ga-3]23([S]1)([S]C(N)=N[N+]2=Cc1c2ccccc2cc2ccccc12)[S]C(N)=N[N+]3=Cc1c2ccccc2cc2ccccc12	–	48 h	7.7 ± 1.5 µM
O=C1/C(=C(\O)CCc2ccccc2)C(=O)[C@@]2(C(=O)OCc3ccccc3)CS[C@H](c3ccccc3)N12	cell viability, Alamar Blue	–	31.3 µg/mL
[Cl][Pd-2]1([Cl])[N+](=Cc2ccc[nH]2)Cc2cccc[n+]21	cell growth or viability, MTT	24 h	15.8 µg/mL
CO[C@H]1N(OC)c2ccccc2[C@@]12CN=C(Nc1cc(C(F)(F)F)cc(C(F)(F)F)c1)S2 (relative stereo)	cell growth or viability, MTS	72 h	67.4 µM
COC(=O)C1CN1S(=O)(=O)c1ccc2c(C=O)c(N(C)C)ccc2c1 (stereo not shown)	cell growth or viability, MTT	48 h	11 µM
O=C(O)CNc1nc(NNC(=O)c2ccc(Nc3nc(Nc4ccc(C(=O)NNc5nc(NCC(=O)O)nc(N6CCCCC6)n5)cc4)nc(Nc4ccc(C(=O)NNc5nc(NCC(=O)O)nc(N6CCCCC6)n5)cc4)n3)cc2)nc(N2CCCCC2)n1	cell growth or viability, MTT	72 h	0.042 µM
Oc1ccc(Br)cc1C=NNC(=S)Nc1ccccc1	cell growth, MTT	72 h	4.5 ± 0.1 µM
Cn1ccn(N=Cc2ccccc2SSc2ccccc2C=Nn2ccn(C)c2=S)c1=S	cell proliferation, MTT	72 h	0.37 ± 0.02 µM
[Cl][Pd-2]([Cl])([N+](=Cc1ccc[nH]1)Cc1ccco1)[N+](=Cc1ccc[nH]1)Cc1ccco1	cell growth or viability, MTT	24 h	> 100 µg/mL
O=C1/C(=C(\O)c2ccccc2)C(=O)[C@@]2(C(=O)OC3CCCCC3)CS[C@H](c3ccccc3)N12	cell viability, Alamar Blue	–	31.3 µg/mL
Oc1ccccc1-c1nn(-c2ccccn2)[n+](-c2ccccc2)n1	cell growth, resazurin	–	29 ± 3 µM
O=C(/C=C(O)/C=C/c1cccs1)/C=C/c1cccs1	cell growth or viability, MTT	72 h	42 µM
CC(=O)OC[C@H]1O[C@@H](n2cc(CSc3nc4ccccc4n3Cc3cn([C@@H]4O[C@H](COC(C)=O)[C@@H](OC(C)=O)C(OC(C)=O)[C@H]4OC(C)=O)nn3)nn2)[C@H](OC(C)=O)C(OC(C)=O)[C@@H]1OC(C)=O (stereo in doubt)	cell growth or viability, MTT	–	7.9 µg/mL
O=C(CNc1nc(NNC(=O)c2ccc(Nc3nc(Nc4ccc(C(=O)NNc5nc(NCC(=O)NO)nc(N6CCCCC6)n5)cc4)nc(Nc4ccc(C(=O)NNc5nc(NCC(=O)NO)nc(N6CCCCC6)n5)cc4)n3)cc2)nc(N2CCCCC2)n1)NO	cell growth or viability, MTT	72 h	0.039 µM
CC(=NNC(N)=S)c1ccc2ccccc2c1.CC(=NNC(N)=S)c1ccc2ccccc2c1.[Cl][Cu][Cl]	cytotoxicity, MTS	72 h	~1 µM
O=C(O)CNc1nc(Cl)nc(NNC(=O)c2ccc(Nc3nc(Nc4ccc(C(=O)NNc5nc(Cl)nc(NCC(=O)O)n5)cc4)nc(Nc4ccc(C(=O)NNc5nc(Cl)nc(NCC(=O)O)n5)cc4)n3)cc2)n1	cell growth or viability, MTT	72 h	0.0547 µM
c1ccc(-n2nc(-c3ccccn3)n[n+]2-c2ccccc2)cc1	cell growth, resazurin	–	270 ± 40 µM
O=C(O)CNc1nc(O)nc(NNC(=O)c2ccc(Nc3nc(Nc4ccc(C(=O)NNc5nc(O)nc(NCC(=O)O)n5)cc4)nc(Nc4ccc(C(=O)NNc5nc(O)nc(NCC(=O)O)n5)cc4)n3)cc2)n1	cell growth or viability, MTT	72 h	0.0648 µM
c1ccc(-c2nn(-c3nc4ccccc4s3)[n+](-c3ccccc3)n2)cc1	cell growth, resazurin	–	40 ± 3 µM
COC(=O)[C@]12CS[C@H](c3ccccc3)N1C(=O)/C(=C(\O)CCc1ccccc1)C2=O	cell viability, Alamar Blue	–	31.3 µg/mL
CCOC(=O)c1ccc(-n2c(N)c(C#N)c(SC)c(C#N)c2=O)cc1	cell viability	24 h	56.2 ± 3.1 µM

A few entries again:
SMILES	assay	setting	IC50
O=C(O)CNc1nc(O)nc(NNC(=O)c2ccc(Nc3nc(Nc4ccc(C(=O)NNc5nc(O)nc(NCC(=O)O)n5)cc4)nc(Nc4ccc(C(=O)NNc5nc(O)nc(NCC(=O)O)n5)cc4)n3)cc2)n1	cell growth or viability, MTT	72 h	0.0648 µM
CCOC(=O)c1ccc(-n2c(N)c(C#N)c(SC)c(C#N)c2=O)cc1	cell viability	24 h	56.2 ± 3.1 µM
